Experimental data collected from several papers.
Numbered parts are unrelated; each lists some results of a single study. Several values in a cell are separate wells, animals, samples, runs or records.
Sequence of UniProt Q9Y2K2 (whole entry, looked up): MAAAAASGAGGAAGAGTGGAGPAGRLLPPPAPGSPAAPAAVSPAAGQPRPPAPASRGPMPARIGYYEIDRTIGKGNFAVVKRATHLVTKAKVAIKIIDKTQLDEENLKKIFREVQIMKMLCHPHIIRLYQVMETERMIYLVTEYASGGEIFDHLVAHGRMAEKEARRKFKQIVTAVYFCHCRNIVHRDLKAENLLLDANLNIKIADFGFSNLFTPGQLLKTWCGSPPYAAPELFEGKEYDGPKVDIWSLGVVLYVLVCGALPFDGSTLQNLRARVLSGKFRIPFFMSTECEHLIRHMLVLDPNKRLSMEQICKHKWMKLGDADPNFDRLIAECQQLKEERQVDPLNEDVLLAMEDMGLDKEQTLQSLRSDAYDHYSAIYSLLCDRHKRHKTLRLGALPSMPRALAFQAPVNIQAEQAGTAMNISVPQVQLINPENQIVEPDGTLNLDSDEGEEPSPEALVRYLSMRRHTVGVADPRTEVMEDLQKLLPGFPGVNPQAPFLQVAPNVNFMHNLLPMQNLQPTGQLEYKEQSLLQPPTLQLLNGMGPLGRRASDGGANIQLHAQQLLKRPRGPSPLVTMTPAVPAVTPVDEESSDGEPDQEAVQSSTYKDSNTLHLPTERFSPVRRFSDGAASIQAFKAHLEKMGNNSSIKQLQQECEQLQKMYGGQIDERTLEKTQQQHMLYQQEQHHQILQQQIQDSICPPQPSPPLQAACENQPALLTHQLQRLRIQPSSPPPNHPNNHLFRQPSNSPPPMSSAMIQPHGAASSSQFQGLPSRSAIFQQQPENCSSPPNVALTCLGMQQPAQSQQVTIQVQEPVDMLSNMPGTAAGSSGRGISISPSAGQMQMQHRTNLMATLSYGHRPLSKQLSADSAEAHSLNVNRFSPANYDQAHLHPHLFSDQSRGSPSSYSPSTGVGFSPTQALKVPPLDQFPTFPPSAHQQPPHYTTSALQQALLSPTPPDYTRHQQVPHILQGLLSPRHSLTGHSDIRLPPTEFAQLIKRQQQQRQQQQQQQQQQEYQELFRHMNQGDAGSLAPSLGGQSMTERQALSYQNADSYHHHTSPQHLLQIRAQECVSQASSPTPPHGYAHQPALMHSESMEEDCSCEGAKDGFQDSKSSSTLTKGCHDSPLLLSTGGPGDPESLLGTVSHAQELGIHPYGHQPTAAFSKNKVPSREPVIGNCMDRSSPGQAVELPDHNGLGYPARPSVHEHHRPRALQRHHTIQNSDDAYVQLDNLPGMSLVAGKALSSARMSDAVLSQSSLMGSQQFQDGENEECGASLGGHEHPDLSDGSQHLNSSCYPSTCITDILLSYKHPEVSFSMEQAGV
Sequence of UniProt P45985 (whole entry, looked up): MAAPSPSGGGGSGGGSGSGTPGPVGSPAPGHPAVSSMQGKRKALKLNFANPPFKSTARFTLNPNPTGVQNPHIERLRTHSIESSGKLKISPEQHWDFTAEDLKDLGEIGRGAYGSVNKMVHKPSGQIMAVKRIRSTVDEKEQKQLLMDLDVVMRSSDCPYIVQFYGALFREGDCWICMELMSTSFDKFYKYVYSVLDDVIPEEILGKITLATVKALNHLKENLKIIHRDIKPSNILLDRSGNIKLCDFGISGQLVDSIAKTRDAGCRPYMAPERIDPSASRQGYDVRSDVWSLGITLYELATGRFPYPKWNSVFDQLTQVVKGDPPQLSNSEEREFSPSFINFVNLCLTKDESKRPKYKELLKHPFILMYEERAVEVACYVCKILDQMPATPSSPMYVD
Sequence of UniProt P21802 (whole entry, looked up): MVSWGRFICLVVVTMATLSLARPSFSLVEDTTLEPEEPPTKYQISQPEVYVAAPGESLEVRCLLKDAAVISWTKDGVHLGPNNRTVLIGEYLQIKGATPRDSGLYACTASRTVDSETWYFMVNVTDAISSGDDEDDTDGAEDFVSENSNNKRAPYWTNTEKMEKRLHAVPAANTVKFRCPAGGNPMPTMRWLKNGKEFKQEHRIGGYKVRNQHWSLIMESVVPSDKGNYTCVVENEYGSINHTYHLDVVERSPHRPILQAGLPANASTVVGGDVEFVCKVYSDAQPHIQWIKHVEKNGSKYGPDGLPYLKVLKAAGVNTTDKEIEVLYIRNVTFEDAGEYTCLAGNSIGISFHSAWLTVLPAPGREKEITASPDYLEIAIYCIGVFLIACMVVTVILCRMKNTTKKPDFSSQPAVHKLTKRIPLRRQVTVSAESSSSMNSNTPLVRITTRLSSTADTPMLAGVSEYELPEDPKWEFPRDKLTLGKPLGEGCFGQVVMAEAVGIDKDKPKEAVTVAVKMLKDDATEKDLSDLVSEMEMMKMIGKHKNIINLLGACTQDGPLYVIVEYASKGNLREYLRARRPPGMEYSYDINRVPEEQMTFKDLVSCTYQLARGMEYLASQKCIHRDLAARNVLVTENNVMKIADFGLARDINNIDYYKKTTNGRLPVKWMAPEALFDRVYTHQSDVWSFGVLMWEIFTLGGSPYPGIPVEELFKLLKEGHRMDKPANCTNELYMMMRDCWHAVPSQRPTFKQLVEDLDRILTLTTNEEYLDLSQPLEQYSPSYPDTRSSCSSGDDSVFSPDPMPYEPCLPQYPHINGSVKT
Sequence of UniProt P48730 (whole entry, looked up): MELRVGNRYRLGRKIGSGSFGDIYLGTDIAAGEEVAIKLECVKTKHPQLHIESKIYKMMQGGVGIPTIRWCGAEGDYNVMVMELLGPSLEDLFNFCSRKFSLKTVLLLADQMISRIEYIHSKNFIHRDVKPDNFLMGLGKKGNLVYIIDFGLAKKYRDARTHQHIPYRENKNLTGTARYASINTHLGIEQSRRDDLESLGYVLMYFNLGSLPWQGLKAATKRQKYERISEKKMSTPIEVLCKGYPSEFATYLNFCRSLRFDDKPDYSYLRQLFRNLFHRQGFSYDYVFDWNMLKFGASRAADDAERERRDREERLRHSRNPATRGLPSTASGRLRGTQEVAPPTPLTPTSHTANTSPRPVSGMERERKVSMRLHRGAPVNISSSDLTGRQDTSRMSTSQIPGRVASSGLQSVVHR
Sequence of UniProt P08069 (whole entry, looked up): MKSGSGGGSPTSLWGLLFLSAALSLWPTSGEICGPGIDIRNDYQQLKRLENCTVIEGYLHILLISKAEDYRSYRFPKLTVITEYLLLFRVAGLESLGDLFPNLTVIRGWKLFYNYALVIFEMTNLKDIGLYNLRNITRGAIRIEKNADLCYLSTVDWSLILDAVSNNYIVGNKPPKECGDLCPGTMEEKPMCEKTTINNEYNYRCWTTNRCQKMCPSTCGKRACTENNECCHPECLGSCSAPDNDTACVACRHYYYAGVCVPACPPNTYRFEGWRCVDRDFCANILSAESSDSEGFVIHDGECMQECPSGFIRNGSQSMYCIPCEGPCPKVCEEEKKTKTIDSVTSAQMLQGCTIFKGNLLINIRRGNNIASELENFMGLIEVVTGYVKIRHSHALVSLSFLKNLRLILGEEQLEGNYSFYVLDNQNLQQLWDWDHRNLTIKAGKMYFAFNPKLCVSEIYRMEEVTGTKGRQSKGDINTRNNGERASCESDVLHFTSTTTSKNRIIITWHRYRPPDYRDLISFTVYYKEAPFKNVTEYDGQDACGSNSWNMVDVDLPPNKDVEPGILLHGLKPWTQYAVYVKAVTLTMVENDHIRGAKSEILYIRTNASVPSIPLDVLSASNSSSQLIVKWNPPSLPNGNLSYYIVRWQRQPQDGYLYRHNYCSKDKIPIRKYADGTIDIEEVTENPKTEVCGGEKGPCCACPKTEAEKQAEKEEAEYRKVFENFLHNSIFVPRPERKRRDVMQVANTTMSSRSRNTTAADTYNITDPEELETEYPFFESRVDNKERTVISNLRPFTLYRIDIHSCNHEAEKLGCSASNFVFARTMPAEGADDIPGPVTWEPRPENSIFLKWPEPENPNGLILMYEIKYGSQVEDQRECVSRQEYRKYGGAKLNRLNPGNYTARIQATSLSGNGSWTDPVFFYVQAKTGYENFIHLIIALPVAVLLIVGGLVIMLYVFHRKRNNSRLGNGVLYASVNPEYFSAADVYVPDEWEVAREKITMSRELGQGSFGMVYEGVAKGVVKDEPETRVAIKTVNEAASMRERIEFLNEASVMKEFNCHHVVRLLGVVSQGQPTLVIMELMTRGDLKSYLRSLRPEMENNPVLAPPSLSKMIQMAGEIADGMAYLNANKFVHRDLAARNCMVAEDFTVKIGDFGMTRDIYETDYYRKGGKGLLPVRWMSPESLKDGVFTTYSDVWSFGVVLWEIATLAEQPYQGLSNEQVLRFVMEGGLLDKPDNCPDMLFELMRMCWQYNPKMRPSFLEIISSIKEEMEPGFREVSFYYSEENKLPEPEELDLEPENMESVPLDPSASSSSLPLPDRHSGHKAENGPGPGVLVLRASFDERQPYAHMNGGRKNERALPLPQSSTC
Sequence of UniProt Q13153 (whole entry, looked up): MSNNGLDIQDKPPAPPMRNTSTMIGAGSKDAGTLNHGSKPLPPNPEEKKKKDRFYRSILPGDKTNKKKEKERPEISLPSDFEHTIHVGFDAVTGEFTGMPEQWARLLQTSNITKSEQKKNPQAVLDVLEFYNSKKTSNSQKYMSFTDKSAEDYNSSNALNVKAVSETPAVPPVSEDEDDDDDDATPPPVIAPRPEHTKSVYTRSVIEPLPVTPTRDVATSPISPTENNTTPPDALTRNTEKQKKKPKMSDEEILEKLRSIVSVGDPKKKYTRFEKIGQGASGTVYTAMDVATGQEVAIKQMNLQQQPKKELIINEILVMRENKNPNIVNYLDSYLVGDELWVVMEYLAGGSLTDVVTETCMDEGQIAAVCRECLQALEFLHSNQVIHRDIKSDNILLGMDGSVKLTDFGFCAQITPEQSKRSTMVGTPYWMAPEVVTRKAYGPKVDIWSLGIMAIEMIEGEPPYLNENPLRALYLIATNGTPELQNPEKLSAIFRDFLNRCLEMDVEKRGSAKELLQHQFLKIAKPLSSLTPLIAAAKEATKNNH

Study 1
Cell line: HaCaT
Concentration: 100 µM
Time: 36 h
Quantity: viability
C[C@H](Cn1cnc2c(N)ncnc21)OCP(=O)(O)O: 93.1%
Nc1cc(F)ccc1NC(=O)c1ccc(CNC(=O)/C=C/c2cccnc2)cc1: 6.75%
CN(C)CCC(c1ccc(Cl)cc1)c1ccccn1 (centres unmarked): 84.7%
COc1ccc(O)cc1: 88.1%
CNC1CCCN(c2c(F)cc3c(=O)c(C(=O)O)cn(C4CC4)c3c2OC)C1 (centres unmarked): 82.7%
Cc1cncc(CN2CCC(=C3c4ccc(Cl)cc4CCc4cccnc43)CC2)c1: 5.38%
CN(C)[C@@H](CCOc1cccc2ccccc12)c1ccccc1: 4.68%
O=C(O)COC(=O)Cc1ccccc1Nc1c(Cl)cccc1Cl: 56%
C[C@]12CCC(=O)C=C1C=C[C@@H]1[C@@H]2CC[C@@]2(C)[C@H]1CC[C@@]21CCC(=O)O1: 86.8%

Study 2
Species: human
Matrix: microsomes or S9
Concentration: 2 µM
Time: 0.5 h
Quantity: remaining compound
COc1c2c(cc3c1OCO3)CCN(C)C(C(=O)c1ccc(Br)cc1)=C2: 0%
Cc1nnc(C)n1/N=C/c1ccc(Cl)cc1Cl: 78%
CCn1nc(C)c(S(=O)(=O)N(C)Cc2nn(C)c(Cl)c2Cl)c1C: 63.4%
COc1cccc(NC(=O)Cn2cnc3c(sc4nc5c(cc43)COC(C)(C)C5)c2=O)c1: 85.4%
COC(C)(C)c1noc(-c2ccc(=O)n(C)n2)n1: 65.6%
Cc1nc2nc(CC(=O)N3CCC(C)CC3)nn2c(C)c1Cl: 95%
Cc1nn(C)c2ncnc(NCc3cc4ccccc4[nH]3)c12: 67.1%
CNC1=C(c2cc(Br)ccn2)C(=O)C(c2cccc(Cl)c2)O1 (centres unmarked): > 100%
O=C(CSc1n[nH]c2nc3ccccc3n12)c1ccc(O)cc1: 10.5%
Fc1cc2nc(-c3cnc(-c4cnccn4)s3)[nH]c2cc1F: 32.8%
CCc1ccc(/N=c2\ncc3c([nH]2)CC(c2ccc(OC)cc2)CC3=O)cc1 (centres unmarked): > 100%
COc1cc(=O)n(C)cc1C(=O)NCCCNC(=O)OC(C)(C)C: > 99%
CCCc1nn2c(N)c(C#N)nnc2c1-c1ccc(F)cc1: 51.7%
CC(C)(C)/C(=C\n1ccnc1)c1ccc(C(C)(C)C)cc1Cl: 12.6%

Study 3
SMILES: CCC(=O)N[C@H]1CC[C@@H](C(=O)N(C)c2ccc(-c3nc4ccccc4o3)cc2)C1
Effect on: cell-free assay
Method: competition with immobilised ligand
Concentration: 1 µM
Quantity: remaining binding
Protein kinase C eta type (PRKCH, Homo sapiens, UniProt P24723): 96%
Mitogen-activated protein kinase kinase kinase 7 (MAP3K7, Homo sapiens, UniProt O43318): 86%
Tyrosine-protein kinase ABL1, phosphorylated (ABL1, Homo sapiens, UniProt P00519, T315I): 89%
Dual specificity mitogen-activated protein kinase kinase 4 (MAP2K4, Homo sapiens, UniProt P45985): 95%
Insulin-like growth factor 1 receptor (IGF1R, Homo sapiens, UniProt P08069): 100%
Cyclin-dependent kinase 4, with cyclin D3 (CDK4, Homo sapiens, UniProt P11802): 88%
Serine/threonine-protein kinase SIK3 (SIK3, Homo sapiens, UniProt Q9Y2K2): 84%
Fibroblast growth factor receptor 2 (FGFR2, Homo sapiens, UniProt P21802): 91%
Calcium/calmodulin-dependent protein kinase kinase 1 (CAMKK1, Homo sapiens, UniProt Q8N5S9): 85%
Tyrosine-protein kinase Fes/Fps (FES, Homo sapiens, UniProt P07332): 73%
Serine/threonine-protein kinase PAK 1 (PAK1, Homo sapiens, UniProt Q13153): 82%
Tyrosine-protein kinase Blk (BLK, Homo sapiens, UniProt P51451): 97%
Epidermal growth factor receptor (EGFR, Homo sapiens, UniProt P00533, del752-759): 100%
Hepatocyte growth factor receptor (MET, Homo sapiens, UniProt P08581): 100%
Casein kinase I isoform delta (CSNK1D, Homo sapiens, UniProt P48730): 96%

Study 4
Cell line: mouse MPNST tumor cells
Method: high-content immunofluorescence imaging
Measured: nuclear SOX9
Concentration: 10 µM
Time: 12 h
Notes: mean of 2 replicates
Reference: DMSO control
Reading: higher = more nuclear SOX9
Quantity: nuclear SOX9 intensity
CC(C)(C)C1CCc2c(sc(NC(=O)c3ccco3)c2C(=O)O)C1 (centres unmarked): 84.3 % of DMSO
OCC1OC(n2cnc3c(NC4CCCC4)nc(Cl)nc32)C(O)C1O (centres unmarked): 97 % of DMSO
O=C(Nc1cccc(C(F)(F)F)c1)Nc1ccc(Br)cc1-c1nn[nH]n1: 112 % of DMSO
COc1cc2c(cc1O)CC[C@@H]1[C@@H]2CC[C@]2(C)[C@@H](O)CC[C@@H]12: 172 % of DMSO
CN1CCCC(n2nc(Cc3ccc(Cl)cc3)c3ccccc3c2=O)CC1 (centres unmarked): 212 % of DMSO
Nc1cc(-c2ccncc2)c[nH]c1=O: 86.1 % of DMSO
COc1nc(N)nc2c1ncn2[C@@H]1O[C@H](CO)[C@@H](O)[C@@H]1O: 109 % of DMSO and 118 % of DMSO
CC[N+](C)(C)Cc1ccccc1Br: 104 % of DMSO and 70.7 % of DMSO
CCCCc1nc(Cl)c(CO)n1Cc1ccc(-c2ccccc2-c2nnn[nH]2)cc1: 99.4 % of DMSO and 96.4 % of DMSO
c1cc(OCCN2CCCCC2)cc(-c2n[nH]c3ccc(-c4nnc[nH]4)cc23)c1: 110 % of DMSO
NC(C(=O)O)c1cc(O)ccc1Cl (centres unmarked): 90.7 % of DMSO
CCN(CC)CC#CCOC(=O)C(O)(c1ccccc1)C1CCCCC1 (centres unmarked): 136 % of DMSO
CSc1nc2ccc3nc(NC(=O)C(c4ccccc4)c4ccccc4)sc3c2s1: 99.2 % of DMSO
CCCCCCCCCCC(C)(C)C(=O)Nc1c(OC)cc(OC)cc1OC: 101 % of DMSO
O=c1[nH]nc(Sc2ncc([N+](=O)[O-])s2)n1-c1ccc2c(c1)OCCO2: 134 % of DMSO

Excerpt of the above (study 2):
COc1cc(=O)n(C)cc1C(=O)NCCCNC(=O)OC(C)(C)C: > 99%
Fc1cc2nc(-c3cnc(-c4cnccn4)s3)[nH]c2cc1F: 32.8%
CCc1ccc(/N=c2\ncc3c([nH]2)CC(c2ccc(OC)cc2)CC3=O)cc1 (centres unmarked): > 100%
Cc1nn(C)c2ncnc(NCc3cc4ccccc4[nH]3)c12: 67.1%
COc1cccc(NC(=O)Cn2cnc3c(sc4nc5c(cc43)COC(C)(C)C5)c2=O)c1: 85.4%
Cc1nc2nc(CC(=O)N3CCC(C)CC3)nn2c(C)c1Cl: 95%
O=C(CSc1n[nH]c2nc3ccccc3n12)c1ccc(O)cc1: 10.5%
Cc1nnc(C)n1/N=C/c1ccc(Cl)cc1Cl: 78%
